# Measurements from different studies.
# Compare with care: the assays were run in different laboratories. Numbers after ± are the reported error.
# Mc1r: Melanocyte-stimulating hormone receptor (Mc1r, Mus musculus, UniProt Q01727)
# Sequence of UniProt Q01727 (whole entry, looked up): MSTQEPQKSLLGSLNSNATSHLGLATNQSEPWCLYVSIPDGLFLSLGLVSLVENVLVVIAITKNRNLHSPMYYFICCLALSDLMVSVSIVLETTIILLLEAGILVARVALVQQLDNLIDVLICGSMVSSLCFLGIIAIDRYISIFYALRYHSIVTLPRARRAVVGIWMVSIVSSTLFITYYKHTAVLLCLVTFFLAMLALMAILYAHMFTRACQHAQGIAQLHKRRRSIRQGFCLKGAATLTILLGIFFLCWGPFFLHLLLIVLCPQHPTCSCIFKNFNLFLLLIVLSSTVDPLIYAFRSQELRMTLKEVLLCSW
# GRPR: Gastrin-releasing peptide receptor (GRPR, Homo sapiens, UniProt P30550)
# Sequence of UniProt P30550 (whole entry, looked up): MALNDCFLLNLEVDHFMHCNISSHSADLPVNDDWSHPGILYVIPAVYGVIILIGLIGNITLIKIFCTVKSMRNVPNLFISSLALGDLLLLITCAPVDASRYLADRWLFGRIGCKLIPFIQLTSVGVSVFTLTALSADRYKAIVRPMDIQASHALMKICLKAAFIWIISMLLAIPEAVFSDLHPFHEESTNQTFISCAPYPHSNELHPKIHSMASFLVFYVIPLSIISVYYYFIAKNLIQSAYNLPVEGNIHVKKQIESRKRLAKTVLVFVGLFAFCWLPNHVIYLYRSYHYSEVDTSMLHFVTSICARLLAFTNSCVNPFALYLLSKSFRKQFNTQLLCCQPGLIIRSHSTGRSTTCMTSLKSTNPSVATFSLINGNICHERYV
# CHRM1: Muscarinic acetylcholine receptor M1 (CHRM1, Homo sapiens, UniProt P11229)
# Sequence of UniProt P11229 (whole entry, looked up): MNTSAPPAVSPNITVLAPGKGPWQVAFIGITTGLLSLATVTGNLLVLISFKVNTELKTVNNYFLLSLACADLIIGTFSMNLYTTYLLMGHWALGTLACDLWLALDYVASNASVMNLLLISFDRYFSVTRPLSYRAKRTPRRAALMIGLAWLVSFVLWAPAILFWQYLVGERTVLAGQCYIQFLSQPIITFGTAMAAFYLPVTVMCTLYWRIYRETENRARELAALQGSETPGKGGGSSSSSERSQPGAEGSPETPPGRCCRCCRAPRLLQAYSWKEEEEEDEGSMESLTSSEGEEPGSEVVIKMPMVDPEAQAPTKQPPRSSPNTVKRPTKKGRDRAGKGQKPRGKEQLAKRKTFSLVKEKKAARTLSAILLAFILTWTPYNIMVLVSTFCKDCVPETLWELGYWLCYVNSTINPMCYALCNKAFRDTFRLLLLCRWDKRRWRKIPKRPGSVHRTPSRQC
# Sequence of UniProt P03372 (whole entry, looked up): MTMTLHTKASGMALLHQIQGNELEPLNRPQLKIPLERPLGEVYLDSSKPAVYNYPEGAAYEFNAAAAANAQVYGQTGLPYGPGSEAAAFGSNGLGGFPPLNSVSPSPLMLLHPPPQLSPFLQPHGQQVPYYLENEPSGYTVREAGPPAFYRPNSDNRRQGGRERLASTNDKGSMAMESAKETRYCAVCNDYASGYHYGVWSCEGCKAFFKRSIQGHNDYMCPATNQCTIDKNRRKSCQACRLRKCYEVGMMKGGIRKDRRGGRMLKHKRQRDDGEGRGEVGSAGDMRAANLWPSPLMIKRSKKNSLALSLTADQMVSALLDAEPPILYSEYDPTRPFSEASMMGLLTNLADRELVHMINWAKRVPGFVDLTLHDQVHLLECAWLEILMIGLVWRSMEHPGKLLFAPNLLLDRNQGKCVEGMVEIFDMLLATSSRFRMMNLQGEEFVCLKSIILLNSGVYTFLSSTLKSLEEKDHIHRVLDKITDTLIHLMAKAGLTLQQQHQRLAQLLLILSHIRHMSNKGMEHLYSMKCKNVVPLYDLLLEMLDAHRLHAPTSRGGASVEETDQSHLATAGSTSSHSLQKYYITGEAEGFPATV
# Sequence of UniProt P41145 (whole entry, looked up): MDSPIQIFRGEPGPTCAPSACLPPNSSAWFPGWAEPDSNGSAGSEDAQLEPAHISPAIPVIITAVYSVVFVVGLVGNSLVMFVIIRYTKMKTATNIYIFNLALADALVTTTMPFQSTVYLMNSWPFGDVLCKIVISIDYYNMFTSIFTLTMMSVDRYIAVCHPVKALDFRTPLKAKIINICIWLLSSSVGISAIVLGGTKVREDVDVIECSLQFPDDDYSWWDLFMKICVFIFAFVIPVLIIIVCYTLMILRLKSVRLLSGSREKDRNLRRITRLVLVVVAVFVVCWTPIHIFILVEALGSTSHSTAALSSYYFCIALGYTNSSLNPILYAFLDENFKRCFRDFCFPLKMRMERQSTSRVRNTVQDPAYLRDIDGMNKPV
# Sequence of UniProt P34969 (whole entry, looked up): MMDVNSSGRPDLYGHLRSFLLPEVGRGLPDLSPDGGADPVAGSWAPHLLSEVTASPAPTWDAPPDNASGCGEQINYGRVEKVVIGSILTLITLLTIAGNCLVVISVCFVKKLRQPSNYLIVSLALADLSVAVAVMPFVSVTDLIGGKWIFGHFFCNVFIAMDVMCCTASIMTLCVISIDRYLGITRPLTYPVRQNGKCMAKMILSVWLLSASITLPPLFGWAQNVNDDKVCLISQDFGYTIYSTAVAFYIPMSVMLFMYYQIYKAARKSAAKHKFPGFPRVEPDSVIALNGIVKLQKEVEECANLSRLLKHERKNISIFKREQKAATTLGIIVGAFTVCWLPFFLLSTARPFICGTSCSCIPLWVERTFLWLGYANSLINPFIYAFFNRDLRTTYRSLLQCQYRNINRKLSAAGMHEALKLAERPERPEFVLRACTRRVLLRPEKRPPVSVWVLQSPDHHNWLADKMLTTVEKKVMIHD
# Sequence of UniProt Q0P543 (whole entry, looked up): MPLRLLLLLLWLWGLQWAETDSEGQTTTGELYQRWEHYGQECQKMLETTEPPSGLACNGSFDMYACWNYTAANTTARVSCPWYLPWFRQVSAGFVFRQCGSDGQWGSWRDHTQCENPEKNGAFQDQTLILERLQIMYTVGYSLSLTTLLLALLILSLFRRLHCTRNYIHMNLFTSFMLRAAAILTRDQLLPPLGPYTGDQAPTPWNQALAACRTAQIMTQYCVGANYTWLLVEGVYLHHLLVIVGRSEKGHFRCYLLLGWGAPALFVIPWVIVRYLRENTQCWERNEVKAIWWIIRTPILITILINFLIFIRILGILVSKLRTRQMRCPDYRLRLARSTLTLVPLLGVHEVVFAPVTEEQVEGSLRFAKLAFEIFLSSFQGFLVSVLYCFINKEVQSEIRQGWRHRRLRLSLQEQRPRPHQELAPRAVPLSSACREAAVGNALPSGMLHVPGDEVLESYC
# Sequence of UniProt P05804 (whole entry, looked up): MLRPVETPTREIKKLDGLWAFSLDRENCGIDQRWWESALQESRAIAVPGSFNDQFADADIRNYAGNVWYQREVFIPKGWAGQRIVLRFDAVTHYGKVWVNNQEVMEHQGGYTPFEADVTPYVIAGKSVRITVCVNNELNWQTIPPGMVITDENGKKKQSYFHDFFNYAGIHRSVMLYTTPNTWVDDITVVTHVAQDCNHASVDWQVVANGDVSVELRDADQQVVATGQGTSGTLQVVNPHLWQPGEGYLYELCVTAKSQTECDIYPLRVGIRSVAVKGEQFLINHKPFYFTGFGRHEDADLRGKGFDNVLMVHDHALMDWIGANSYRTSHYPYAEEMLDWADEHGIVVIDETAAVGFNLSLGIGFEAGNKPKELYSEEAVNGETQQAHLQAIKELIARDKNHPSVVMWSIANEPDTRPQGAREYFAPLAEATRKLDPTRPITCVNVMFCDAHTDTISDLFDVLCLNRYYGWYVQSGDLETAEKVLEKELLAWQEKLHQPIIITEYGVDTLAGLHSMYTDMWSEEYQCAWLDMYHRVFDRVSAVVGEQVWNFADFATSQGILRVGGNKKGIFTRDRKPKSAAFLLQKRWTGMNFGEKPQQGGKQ
# Sequence of UniProt Q96RJ0 (whole entry, looked up): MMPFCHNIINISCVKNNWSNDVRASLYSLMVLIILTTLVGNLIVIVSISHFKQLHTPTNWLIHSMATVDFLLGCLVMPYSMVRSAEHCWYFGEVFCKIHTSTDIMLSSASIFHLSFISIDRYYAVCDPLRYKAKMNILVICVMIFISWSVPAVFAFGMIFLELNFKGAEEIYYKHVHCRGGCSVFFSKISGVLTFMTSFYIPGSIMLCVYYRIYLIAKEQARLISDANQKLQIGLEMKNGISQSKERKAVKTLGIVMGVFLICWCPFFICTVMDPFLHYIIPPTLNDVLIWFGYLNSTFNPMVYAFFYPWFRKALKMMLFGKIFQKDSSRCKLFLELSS
# Sequence of UniProt P17812 (whole entry, looked up): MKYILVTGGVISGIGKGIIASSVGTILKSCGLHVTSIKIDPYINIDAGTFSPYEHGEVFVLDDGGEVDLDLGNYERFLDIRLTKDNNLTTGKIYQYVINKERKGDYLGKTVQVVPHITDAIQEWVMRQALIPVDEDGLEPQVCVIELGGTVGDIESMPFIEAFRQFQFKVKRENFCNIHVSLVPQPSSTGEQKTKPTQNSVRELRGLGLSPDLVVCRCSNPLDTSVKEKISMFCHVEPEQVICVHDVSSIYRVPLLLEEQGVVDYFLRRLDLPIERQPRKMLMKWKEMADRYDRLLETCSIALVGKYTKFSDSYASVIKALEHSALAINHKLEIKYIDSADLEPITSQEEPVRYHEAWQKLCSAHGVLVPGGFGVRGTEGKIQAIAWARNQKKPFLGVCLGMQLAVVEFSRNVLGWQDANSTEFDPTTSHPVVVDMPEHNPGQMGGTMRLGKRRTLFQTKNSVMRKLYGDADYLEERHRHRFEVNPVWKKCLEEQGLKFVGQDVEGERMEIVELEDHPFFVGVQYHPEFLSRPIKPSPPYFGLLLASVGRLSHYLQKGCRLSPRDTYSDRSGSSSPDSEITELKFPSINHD
# Sequence of UniProt P25084 (whole entry, looked up): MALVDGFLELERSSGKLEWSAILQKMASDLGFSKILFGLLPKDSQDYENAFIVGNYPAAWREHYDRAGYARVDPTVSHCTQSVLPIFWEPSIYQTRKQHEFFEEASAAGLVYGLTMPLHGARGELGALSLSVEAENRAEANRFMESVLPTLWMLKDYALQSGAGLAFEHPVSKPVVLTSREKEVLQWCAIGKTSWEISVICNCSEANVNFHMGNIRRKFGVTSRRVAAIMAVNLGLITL
SMILES,target,assay,test system,conditions,EC50 [nM]
CN1CCN(c2nnnc3c2sc2nc(N4CCOCC4)c4c(c23)CCCC4)CC1,"Beta-glucuronidase (uidA, Escherichia coli, UniProt P05804)",,,,2300 ± 500
CC[C@H](C)[C@H](NC(=O)[C@H](CO)NC(=O)[C@H](Cc1ccc(O)cc1)NC(=O)[C@H](CC(=O)O)NC(=O)[C@H](CO)NC(=O)[C@@H](NC(=O)[C@H](Cc1ccccc1)NC(=O)[C@@H](NC(=O)CNC(=O)[C@H](CCC(=O)O)NC(=O)C(C)(C)NC(=O)[C@@H](N)Cc1ccc(O)cc1)[C@@H](C)O)[C@@H](C)CC)C(=O)N[C@@H](C)C(=O)N[C@@H](CCSC)C(=O)N[C@@H](CC(=O)O)C(=O)N[C@@H](CCCCN)C(=O)N[C@H](C(=O)N[C@@H](Cc1c[nH]cn1)C(=O)N[C@@H](CCC(N)=O)C(=O)N[C@@H](CCC(N)=O)C(=O)N[C@@H](CC(=O)O)C(=O)N[C@@H](Cc1ccccc1)C(=O)N[C@H](C(=O)N[C@@H](CC(N)=O)C(=O)N[C@@H](Cc1c[nH]c2ccccc12)C(=O)N[C@@H](CC(C)C)C(=O)N[C@@H](CC(C)C)C(=O)N[C@@H](C)C(=O)N[C@@H](CCC(N)=O)C(=O)N[C@@H](CCCCN)C(=O)NCC(=O)N[C@@H](CCCCN)C(=O)N[C@@H](CCCCN)C(=O)N[C@@H](CC(N)=O)C(=O)N[C@@H](CC(=O)O)C(=O)N[C@@H](Cc1c[nH]c2ccccc12)C(=O)N[C@@H](CCCCN)C(=O)N[C@@H](Cc1c[nH]cn1)C(=O)N[C@@H](CC(N)=O)C(=O)N[C@H](C(=O)N[C@H](C(=O)N[C@@H](CCC(N)=O)C(=O)O)[C@@H](C)O)[C@@H](C)CC)C(C)C)[C@@H](C)CC,"Gastric inhibitory polypeptide receptor (Mus musculus, UniProt Q0P543)","reporter gene, agonist, luciferase",,,0.0117
c1cnc2c(c1)c1nccnc1c1cccnc12,"Taste receptor type 2 member 5 (TAS2R5, Homo sapiens, UniProt Q9NYW4)","calcium signal, agonist",,,77600
C[N+]1([O-])CCN(C2=Nc3cc(Cl)ccc3Nc3ccccc32)CC1,"Muscarinic acetylcholine receptor M3 (CHRM3, Homo sapiens, UniProt P20309)","calcium signal, agonist",,,> 30000
C[C@@H]1NC(=O)[C@H](CC(N)=O)NC(=O)[C@H](Cc2c[nH]c3ccccc23)NC(=O)[C@H](CCCNC(=N)N)NC(=O)[C@@H](Cc2ccccc2)NC(=O)[C@H](Cc2c[nH]cn2)NC(=O)[C@@H](NC(=O)[C@@H](N)Cc2ccc(O)cc2)CCCn2nncc2-c2cccc(c2)-c2cnnn2CCC[C@@H](C(=O)N[C@@H](Cc2ccc(O)cc2)C(N)=O)NC(=O)[C@H](Cc2ccccc2)NC1=O,Mc1r,agonist,,,570 ± 153
O=C(CCc1ccc(Br)cc1)N[C@H]1CCOC1=O,"Transcriptional activator protein LasR (lasR, Pseudomonas aeruginosa, UniProt P25084)","reporter gene, agonist",PAO-JP2 pump active,,> 200000
CSCC[C@H](NC(=O)[C@H](Cc1ccccc1)NC(=O)[C@H](CO)NC(=O)CNC(=O)[C@@H](NC(=O)[C@H](C)NC(=O)[C@H](Cc1c[nH]c2ccccc12)NC(=O)[C@H](CC(C)C)NC(=O)[C@@H]1CCC(=O)N1)C(C)C)C(N)=O,GRPR,"inositol phosphate, agonist",,,288
c1ccc(-c2csc(Nc3nc4cc5c(cc4s3)OCO5)n2)nc1,"CTP synthase 1 (Homo sapiens, UniProt P17812)","enzyme activity, inhibitor, ADP detection",,,1200
Cc1ccc(Cn2cc(C(=O)N[C@H]3CCCC[C@@H]3O)c3c(F)cc(F)cc32)cn1,CHRM1,"calcium mobilization, positive allosteric modulator",CHO,with: acetylcholine EC20,1660
"CC1(CCN2CCc3ccccc3C2)Cc2cc(Cl)ccc2C1=O (single isomer, unassigned)","5-hydroxytryptamine receptor 7 (HTR7, Homo sapiens, UniProt P34969)","β-arrestin recruitment, agonist",,,158
CC(=O)N[C@@H](CCCNC(=N)N)C(=O)N[C@@H](CCCNC(=N)N)C(=O)N[C@H](Cc1ccc(I)cc1)C(=O)N[C@H](C(N)=O)[C@@H](c1ccccc1)c1c[nH]c2ccccc12,Mc1r,"cAMP, agonist, AlphaScreen",,,260
CC[C@H](C)[C@H](NC(=O)[C@H](C)NC(=O)[C@H](CCC(=O)O)NC(=O)[C@H](CC(N)=O)NC(=O)[C@@H](N)CO)C(=O)N[C@@H](CO)C(=O)N1CCC[C@H]1C(=O)N[C@@H](Cc1ccccc1)C(=O)N[C@@H](CC(=O)O)C(=O)N[C@@H](CCC(N)=O)C(=O)NCC(=O)N[C@@H](CCSC)C(=O)N[C@@H](CCSC)C(=O)NCC(=O)N[C@@H](Cc1ccc(O)cc1)C(=O)N[C@H](C(=O)N[C@H](C(=O)N[C@@H](CCCCN)C(=O)N[C@H](C(=O)N[C@@H](CC(N)=O)C(=O)N[C@@H](CCCCN)C(=O)N[C@@H](CC(N)=O)C(=O)N[C@H](C(=O)N1CCC[C@H]1C(=O)N[C@@H](CCCNC(=N)N)C(=O)N[C@@H](CCSC)C(N)=O)[C@@H](C)CC)[C@@H](C)O)[C@@H](C)CC)C(C)C,"Ecdysis triggering hormone receptor B (Aedes aegypti, UniProt A7J265)",,,,~112
CSCC[C@H](NC(=O)[C@H](Cc1ccccc1)NC(=O)[C@H](Cc1c[nH]cn1)NC(=O)CNC(=O)[C@@H](NC(=O)[C@H](C)NC(=O)[C@H](Cc1c[nH]c2ccccc12)NC(=O)[C@H](CCC(N)=O)NC(=O)[C@@H]1CCCN1C(=O)CNC(=O)CNC(=O)CNC(=O)[C@@H]1CCC(=O)N1)C(C)C)C(N)=O,GRPR,"inositol phosphate, agonist",,,0.19
C=C(C)C(=O)Oc1ccc(C(C)(C)c2ccc(OC(=O)C(=C)C)cc2)cc1,"Estrogen receptor (ESR1, Homo sapiens, UniProt P03372)","reporter gene, agonist",MVLN,50% of control maximum,4800
NCCc1ccccc1,"Trace amine-associated receptor 1 (TAAR1, Homo sapiens, UniProt Q96RJ0)","cAMP, agonist, luciferase",,,81.3
CCCC[C@H](NC(=O)[C@H](CC(C)C)NC(=O)[C@H](Cc1c[nH]cn1)NC(=O)CNC(=O)[C@@H](NC(=O)[C@H](C)NC(=O)[C@H](Cc1c[nH]c2ccccc12)NC(=O)[C@H](CCC(N)=O)NC(=O)[C@H](CC(N)=O)NC(=O)CNC(=O)[C@H](Cc1ccc(O)cc1)NC(=O)[C@H](CCCNC(=N)N)NC(=O)[C@H](CCC(N)=O)NC(=O)[C@@H]1CCC(=O)N1)C(C)C)C(N)=O,GRPR,"inositol phosphate, agonist",,,0.43
CSCC[C@H](NC=O)C(=O)N[C@@H](Cc1ccccc1)C(=O)N[C@@H](CCC(=O)O)C(=O)N[C@@H](CC(=O)O)C(=O)N[C@@H](C)C(=O)N[C@H](C(=O)N[C@@H](C)C(=O)N[C@@H](Cc1c[nH]c2ccccc12)C(=O)N[C@@H](Cc1ccccc1)C(=O)O)C(C)C,"fMet-Leu-Phe receptor (FPR1, Homo sapiens, UniProt P21462, N192K)","receptor surface downregulation, agonist",CHO cells,"1 h, 37 °C",1000 ± 80
Cn1ccc(-c2ccc(Cn3cc(C(=O)N[C@H]4CCCC[C@@H]4O)c4c(F)cc(F)cc43)cn2)n1,CHRM1,"calcium mobilisation, positive allosteric modulator",CHO,with: acetylcholine EC20,224
CC(=O)N[C@@H](CCCNC(=N)N)C(=O)N[C@@H](CCCNC(=N)N)C(=O)N[C@@H](C(=O)N1Cc2ccccc2C[C@H]1C(N)=O)[C@@H](c1ccccc1)c1c[nH]c2ccccc12,Mc1r,"cAMP, agonist, AlphaScreen",,,900
C[C@@H]1NC(=O)[C@H](CC(N)=O)N2C[C@H](Cc3c[nH]c4ccccc34)NC(=O)[C@H](CSCC2=O)NC(=O)[C@H](CCCNC(=N)N)NC(=O)[C@@H](Cc2ccccc2)NC(=O)[C@H](Cc2c[nH]cn2)NC(=O)[C@@H](NC(=O)[C@@H](N)Cc2ccc(O)cc2)CSSC[C@@H](C(=O)N[C@@H](Cc2ccc(O)cc2)C(N)=O)NC(=O)[C@H](Cc2ccccc2)NC1=O,Mc1r,"reporter gene, agonist",,,68.8
CC(=O)N[C@H](CCCNC(=N)N)C(=O)N[C@@H](Cc1ccc(O)cc1)C(=O)N[C@@H](CCCNC(=N)NC(=O)NCCCCN)C(=O)N[C@@H](CC(C)C)C(=O)N[C@@H](CCCNC(=N)N)C(=O)N[C@@H](Cc1ccc(O)cc1)C(N)=O,"Neuropeptide Y receptor type 4 (NPY4R, Homo sapiens, UniProt P50391)","β-arrestin 2 recruitment, agonist",HEK293T,,624 ± 150
Cc1cc(O)cc(C)c1CC(N)C(=O)NC1CCNc2c(CN3CCCCC3)cc(Cc3ccccc3)cc21 (stereo not shown),"Kappa-type opioid receptor (OPRK1, Homo sapiens, UniProt P41145)","GTPγS binding, agonist, radiometric",,cell membranes,100
